Experimental data gathered from unrelated publications.
Parts stem from different laboratories: compare values within a part only. Substitutions count along the parent as printed.

Series 1
Target: Histone acetyltransferase KAT6A, both winged helices, GST fusion (KAT6A, Homo sapiens, UniProt Q92794, residues 1-181)
Method: protein binding microarray
Form: double-stranded DNA, one strand shown
Medium: in vitro
Tested at: not given
Notes: 8-mer, flanks averaged, mean of 2 arrays, mostly near background
Relative to: not given
Reading: higher = stronger binding
Target sequence (chain): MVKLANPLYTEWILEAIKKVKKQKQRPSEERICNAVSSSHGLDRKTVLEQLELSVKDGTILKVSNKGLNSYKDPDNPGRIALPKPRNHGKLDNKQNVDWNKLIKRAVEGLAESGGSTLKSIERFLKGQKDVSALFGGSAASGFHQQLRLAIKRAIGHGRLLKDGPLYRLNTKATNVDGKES
| Oligonucleotide | E-score |
| --- | --- |
| AATCTCCA | -0.118 |
| ACGACTGC | -0.0438 |
| AATCAGGT | -0.0756 |
| AGATTCAA | -0.146 |
| GCAGATAA | -0.0245 |
| CCGAGTCG | 0.0661 |
| TCCGGAAA | 0.189 |
| TACCGCGA | 0.314 |
| AACTATTG | -0.00724 |
| GCATCGAA | 0.00234 |
| AAGAAACG | -0.0191 |
| AAGACAGG | -0.242 |
| TCTACCAA | -0.142 |
| CGGTCCGC | 0.28 |
| GCCAAGAC | -0.094 |
| TCCCTGCA | -0.159 |
| GACCTTGA | -0.0387 |
| GAATTTAA | -0.101 |
| CCTAAGAC | -0.146 |
| AAAATACC | 0.011 |
| CGGCTCGC | 0.2 |
| GATCGCCA | -0.0585 |
| GGATCTGA | -0.0761 |
| ACAGTATG | -0.187 |
| GATCTTTA | 0.0123 |

Series 2
Target: RNA binding protein fox-1 homolog 2, RRM domain, GST-SBP tag (RBFOX2, Homo sapiens, UniProt O43251-10, residues 100-194)
Method: RNA Bind-n-Seq
Form: RNA
Medium: in vitro
Tested at: 365 nM
Notes: natural RNA segment, single round, ends assumed
Relative to: no-protein control
Reading: higher = stronger binding
Shared flanks, not repeated: GGGAGUUCUACAGUCCGACGAUC … UGGAAUUCUCGGGUGCCAA
Residues (chain): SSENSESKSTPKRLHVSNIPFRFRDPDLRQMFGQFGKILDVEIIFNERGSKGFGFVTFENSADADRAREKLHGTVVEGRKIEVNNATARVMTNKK
| Oligonucleotide | RBNS enrichment (R) |
| --- | --- |
| AGCGCCGGGUAUGCUGCCUCUCAGUGUGUGGUGCCUAGCCUCCAGGUGGGGGCUCCUGCCCUCCUCCAACAACCCAGGACACCCACGCCUCACCCCUCGGUGCCUGGGCC | 0.288 |
| CAGACAUCACCAAGUCUCGUCUUCUUUCCUUCCUGUGAGUUGAAACCAAACAGGCCUCUCGCUCACUCCUCCCAGCCCAGUAAUGCUGAGGAGUUCAGUUGUGAGGAAAG | 0.207 |
| UUCUUACAUGAUAAGCAGAUUGAAUACAACACCAGCAGCUUGCCUUAGAAAAGGAGAAAGGAAUUCCUUUUCCCGCCCGAACAUGAAGAAAAAUGACCUGACCCUGUAGA | 0.572 |
| GUUUAUGCAACUCUAUCUUAAGAACUGCCCAGCCUCAGCUGAAAACCCGAAUCUGAGAAGGAAUUGCGUCAUGUAAGGGAAGCUGGAAUUAAGGGAGCUGAGCCAGUCAU | 0.689 |
| CCUGAAUUUACUGUUAUCUUAUUGUAGUACUUGCAUGACAUGGAUUCCUGAUAUCUGAUGAGAGGUUCAUUCUUGUGUAUUCAGUUAAUGACACCAAAAGGCUCAGCCCA | 2.25 |
| CUUCUGAAAGCACUAAGUUUUCAGUUUUGGAGUUACUUCUCCCUUGCCUCUGACACACUGCACACGUCUAGAGGCUGUAAUUGGAAAUAGGCUUUUGGUUUCCUGUGCCA | 0.792 |
| UACUGGGUUUUAACUUAUUUUUCUUUAAUAAAAUACAUUGUUUUCCUAAGUUUUGGGGUUACCCUAUCUGCUUUGAGAGACAAAUACAAAAGCUAAAUGGAAGAGAUUCU | 0.401 |
| UUAAGGGUUAGCUUUGAGUAUGUUACUGUCCUUCUAUGACAAGACCAAAGGAACAAACUCCUUGGUGAAUCUGGAGUUCAGCUUUAGUUUUCAAACACAAUCUGAAAUCU | 0.333 |
| GGACUCUGCUACACUGUGCCUUUGUGGUCAGCCUCACUGACGGGGUCUGCAAGUAGCCAGGGCGUGUGGGACAAAAGCAGGUCACACGCAGAGCAGGAAAUCAGACCAAG | 0.495 |
| CCAUCAAGUUCCCAGCUUUUCAGGAAUGAAAGAAGUUCAGCAGUCAGAUAAUCCUUGUGUCUUGGGUCAGUUUGGCCCUGGCCCUAGAGUGAGGCAAGCCCUUCCUAUGA | 0.384 |
| UCAGGAUACUUAUGGGCAACAGUGGAAUAGACAAGUGAGGGCUUGAAAACGAUUCUGUCAAGAUCCAAUUGGCUCUAGAUCUACAUUCUUCAAACAAAAUUGGCGUAACU | 0.405 |
| UGCAGUUGAGCAAGGAAGCUGAGGUUGGAACCAUUAAACUAUUUCUUCCCAUUUUCAAAAGGACCUUAGAGUAGAGUGGGCUUUAGAAAAGGGCUUCACCCAGCUGCUUG | 1.02 |

Series 3
Target: Interferon regulatory factor 7, full length, phosphomimetic (IRF7, Homo sapiens, UniProt Q92985, residues 1-503, S101K/S471D/S472D/S475D/S476D/S477D/S483D/S484D/S487D)
Sequence of UniProt Q92985 (whole entry, unmodified, looked up): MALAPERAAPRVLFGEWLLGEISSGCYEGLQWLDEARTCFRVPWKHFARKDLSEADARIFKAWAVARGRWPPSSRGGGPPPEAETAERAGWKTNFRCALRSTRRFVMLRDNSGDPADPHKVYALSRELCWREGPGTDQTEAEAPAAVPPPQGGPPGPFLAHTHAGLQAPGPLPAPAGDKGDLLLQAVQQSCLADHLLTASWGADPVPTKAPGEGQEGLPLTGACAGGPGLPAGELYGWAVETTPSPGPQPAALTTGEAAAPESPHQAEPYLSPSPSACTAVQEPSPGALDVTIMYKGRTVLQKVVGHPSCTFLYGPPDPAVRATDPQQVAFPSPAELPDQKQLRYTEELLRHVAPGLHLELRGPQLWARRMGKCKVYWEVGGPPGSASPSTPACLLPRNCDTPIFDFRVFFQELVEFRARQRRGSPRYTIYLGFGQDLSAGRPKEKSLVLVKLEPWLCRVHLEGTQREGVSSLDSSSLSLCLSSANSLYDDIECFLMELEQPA
Method: protein-binding microarray
Form: double-stranded DNA, one strand shown
Medium: in vitro
Tested at: 250 nM
Notes: 60-bp whole probe
Added: salmon DNA 0.4 mg/ml
Relative to: random background probes
Reading: higher = stronger binding
Shared flanks, not repeated: GCCTAGCAC … GTCTTGATTCGCTTGACGCTGCTG
| Oligonucleotide | log fluorescence [z-score] |
| --- | --- |
| AAAGATTTATCAAATGTGGGAGTGCTA | -0.333 |
| GACGCTATCGGTTTCGGGACGTGCTAG | 3.23 |
| TTGGGTCTCGGTATCGGTTAGTGCTAG | 2.48 |
| TCAACCTTCGAGTCTGCAACTGTGCTA | -0.263 |
| TCAGCTTCCTCTTTTTTACTGTGCTAG | 0.299 |
| TCACATTGAGATTTTCATACTGTGCTA | 0.643 |
| GAAGATTTCAATTAGAAAAAGTGCTAG | 0.607 |
| GAGGGTCTCGGTTTCGGGACGTGCTAG | 6.6 |
| TTAGATTTCGGATTTCGATTAGTGCTA | 2.92 |
| GACGAACTGGGGTTGCGAGACGTGCTA | -0.771 |
| GACGGTTTCGGGTTTCAGGACGTGCTA | 11.2 |
| TTAGGTATTGACTTTCGGTTAGTGCTA | 1.46 |
| TTAGATATCAGTATCAATTAGTGCTAG | 0.0633 |
| TTAGATATCGACACTGGGTTAGTGCTA | -0.351 |
| GACGGACTGGGTTTTGGGACGTGCTAG | -0.579 |
| TTAGTTCTGAGTCTTCCCTTGTGCTAG | 0.506 |
| GACGGACTCCTACTGCTGACGTGCTAG | -0.168 |
| TCTTGTCTGGATGTGCCTTAGTGCTAG | 0.085 |
| TCACTTGTGTTTATTGTACTGTGCTAG | 0.483 |
| GACGAATTGAGTCTCGAGACGTGCTAG | 0.624 |
| TTAGATTTTAGTTTCGATTAGTGCTAG | 9.86 |

Series 4
Target: CCND3, cyclin fold, Cln2 fusion (human)
Method: yeast growth competition, sequencing
Medium: yeast
Notes: weak parent motif
Relative to: not given
Reading: higher = stronger binding
Starting sequence: E2F1 docking peptide (human); PPVKRRLDLETDH; partner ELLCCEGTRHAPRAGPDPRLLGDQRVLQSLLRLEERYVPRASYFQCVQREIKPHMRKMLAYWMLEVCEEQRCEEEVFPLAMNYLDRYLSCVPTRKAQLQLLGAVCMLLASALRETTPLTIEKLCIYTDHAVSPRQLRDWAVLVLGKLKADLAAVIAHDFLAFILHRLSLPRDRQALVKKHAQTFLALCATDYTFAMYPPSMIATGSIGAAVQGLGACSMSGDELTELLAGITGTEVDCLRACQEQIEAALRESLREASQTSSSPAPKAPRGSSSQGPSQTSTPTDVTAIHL
| Change | normalised enrichment score |
| --- | --- |
| PPVKRRLDLETDL [H13L] | 0.133 |
| PPVKRRLDLEMDH [T11M] | 0.0377 |
| WPVKRRLDLETDH [P1W] | 0.242 |
| KPVKRRLDLETDH [P1K] | 0.162 |
| PPVARRLDLETDH [K4A] | 0.194 |
| EPVKRRLDLETDH [P1E] | 0.169 |
| PPVKRRLDLETRH [D12R] | 0.0485 |
| PPVKRRLVLETDH [D8V] | 0.106 |
| PPVKIRLDLETDH [R5I] | 0.0619 |
| PPVKRRLDLEDDH [T11D] | 0.059 |
| PPVKRRLDLETDE [H13E] | 0.11 |
| PPVKRRGDLETDH [L7G] | 0.0818 |
| PPPKRRLDLETDH [V3P] | 0.203 |
| PPVHRRLDLETDH [K4H] | 0.17 |
| PPVKRRQDLETDH [L7Q] | 0.0844 |
| PPVKRRLDLWTDH [E10W] | 0.152 |
| PMVKRRLDLETDH [P2M] | 0.0991 |

Series 5
Molecule: PhoQ, residues 284 288 289 292 302 303 TNASYF
Method: Sort-seq
Measured: YFP reporter
Medium: E. coli
Notes: PhoQ-PhoP variant library
Added: 10 µM Mg2+
Relative to: high Mg2+ state
Reading: higher = stronger signaling
| target | fold induction |
| --- | --- |
| PhoP, residues 12 14 15 18 19 NFFVT (Escherichia coli, UniProt P23836) | 7.24 |
| PhoP, residues 12 14 15 18 19 VGHWL (Escherichia coli, UniProt P23836) | 4.49 |
| PhoP, residues 12 14 15 18 19 TPWTL (Escherichia coli, UniProt P23836) | 2.57 |
| PhoP, residues 12 14 15 18 19 LHHYF (Escherichia coli, UniProt P23836) | 13.6 |

Series 6
Target: ABI1, truncated, D143A, DHFR fusion (Arabidopsis thaliana)
Method: DHFR PCA, deep sequencing
Medium: yeast
Notes: methotrexate growth selection, single substitutions
Added: (+)-ABA 0.032 µM
Relative to: wild-type fitted maximum
Reading: higher = stronger binding
Starting sequence: PYL1, truncated, DHFR fusion (Arabidopsis thaliana); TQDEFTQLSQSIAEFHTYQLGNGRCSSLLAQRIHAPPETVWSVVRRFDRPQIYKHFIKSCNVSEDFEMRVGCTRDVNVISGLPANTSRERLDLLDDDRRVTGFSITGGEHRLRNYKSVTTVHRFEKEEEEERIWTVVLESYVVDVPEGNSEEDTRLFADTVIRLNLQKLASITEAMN
| Change | relative binding score [%] |
| --- | --- |
| F15Y | 29.4 |
| L28P | 0.0523 |
| C60R | 5.94 |
| M68L | 61.9 |
| E109Q | 9.07 |
| F66W | 8.51 |
| K58P | -0.384 |
| T106Y | 6.58 |
| H122E | 0.231 |
| R111E | 2.1 |
| V40L | 5.62 |
| G107L | 0.757 |
| L82T | 8.62 |
